Assay results from different studies.
Every numbered part comes from another study and shows a few of its results, in no order. Substitutions count along the parent as printed.

Sample 1
Target: Phosphate system positive regulatory protein PHO4, full length, GST-tagged (PHO4, Saccharomyces cerevisiae, UniProt P07270, residues 1-312)
Method: competition protein-binding microarray
Form: double-stranded DNA, one strand shown
Sample: in vitro
Tested at: 2 µM
Setting: whole 60-bp probe, lowest competitor level
Added: Cbf1 competitor, 0.05 µM
Direction: higher = stronger binding
Quantity: fluorescence intensity
Constant ends, left off below: … GTCTTGATTCGCTTGACGCTGCTG
Construct (chain): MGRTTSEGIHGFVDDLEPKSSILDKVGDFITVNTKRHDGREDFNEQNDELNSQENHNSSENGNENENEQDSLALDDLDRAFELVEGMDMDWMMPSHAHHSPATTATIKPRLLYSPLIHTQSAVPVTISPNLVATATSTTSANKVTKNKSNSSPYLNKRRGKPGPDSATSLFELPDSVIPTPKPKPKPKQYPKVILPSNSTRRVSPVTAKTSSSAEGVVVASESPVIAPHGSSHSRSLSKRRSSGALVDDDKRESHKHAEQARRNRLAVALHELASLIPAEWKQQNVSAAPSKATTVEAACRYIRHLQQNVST
TGTTTGGCTGGTGTGTACGTGGTGAAAACCAAGAAT: 7550 a.u.
AAAGCGGTAATTTTTCACGTGTCTTCACATATCTAT: 13300 a.u.
CGTCCTAGTGATTGTCACATCACTTCCATGAGGAAG: 4820 a.u.
TCCCGTACATCGATGTACGTGATGGGTTTTTCTCAT: 5130 a.u.
CTAACGAAGGTTTGTCACTTGACTTACAAGCCAAGT: 3260 a.u.
GTAGTTCCCAGTCTTTTCGTGATGGTCAACTTAACG: 3980 a.u.
CGTCCTAGTGATTGTGCTGTGGGTGCCATGAGGAAG: 8260 a.u.
GAAATAAAGGGAACACACGTGAAATTGAAGGACAGC: 12300 a.u.
TGTCAAGCCAGACTGGACGTGTGGATGGGGGGCAAA: 4320 a.u.
CGCCTTAATCGCTCCGGCGTGGGTAAAGAAAGCAGA: 6300 a.u.
AACCTTACAAAAAATCACATGACAACCTAACAAAAT: 6740 a.u.
TAAGATATACCTCACCACGTGAGATTATAGAAGCAA: 13600 a.u.
AGAGGTATTACCCATCACGTGATGGTTATTTCTTTT: 12900 a.u.
AAGCGCAGGAGGAGCAGCGTGGCGCAACCTTAAGGC: 5970 a.u.
AAAGCGGTAATTTTTCACGTGATATCAAATATCTAT: 12000 a.u.
TTTTAGAGGAAAGAGAACGTGGTGAAAAAGTCAAAA: 11800 a.u.
CTTTCCCGATCTTGAGTAGTGGGTGTAGCACATTTG: 5530 a.u.
GGATGAAGTAGGAAACTCGTGAATATATAAACCCCG: 5000 a.u.
CGTCCTAGTGATTGCAGTGTGGGTGCCATGAGGAAG: 8210 a.u.
CGTTATATTTCCGACGTCGTGCGATAGTTTCTGCGC: 9660 a.u.
CGTCCTAGTGATTTTCACGTGCGTTCCATGAGGAAG: 13600 a.u.
TGCGCAACAACTTGGTTTGTGGGTGTATGTCTAGAA: 4440 a.u.
AAATTACTAAGTTGCTTAGTGGGTGACGCCGTATGA: 4070 a.u.
CATTATGGTAATTAGCACGTGGTCGATGGGGATTGT: 18300 a.u.

Sample 2
Target: RNA binding protein fox-1 homolog 2, RRM domain, GST-SBP tag (RBFOX2, Homo sapiens, UniProt O43251-10, residues 100-194)
Method: RNA Bind-n-Seq
Form: RNA
Sample: in vitro
Tested at: 365 nM
Setting: natural RNA segment, single round, ends assumed
Baseline: no-protein control
Direction: higher = stronger binding
Quantity: RBNS enrichment (R)
Constant ends, left off below: GGGAGUUCUACAGUCCGACGAUC … UGGAAUUCUCGGGUGCCAA
CUCCUCCCAGACCCAGCUGGUGGCUGUGAGGAGGUGGGGAAUGCUAAUGAGAAUGAAAAGCACAUGGGUUGAUGGGAAGGGACAAGAUUACCACGUUAGGAGGGUGAGCA: 29.5
ACAGGUUAAAAUGGAAUUUAAUCUCAGAGAUCCUUUGUUCAAGAAUAUUUGAUUGCAUAUUUAGUUGUAGUAAGAUUUUAUAAAAUACAUAAUCCUUUGUAUGUGCAGUU: 0.85
UUUAGCACCUACCUCCUAGAGCUGUUUUGGGAGUCAAAUGCGCUGACGUAUAUAAAGUGCUUUGCAAGAUCCCUUUGUGUUUGCGGCUGUCAUUGUGGAAGAGUUGCAAC: 1.2
CCAUGGUAAGUUGAGGCAUAUCUGUAUAUAUUUAAACCUAAUUAAUUCUUGAGCUGAAAAUAAAUAAACCAGGAUGGCAGGGACCAACCCCUAAUCCCUCCCCAGCGGCA: 0.419
GAAUAGUACUUUAUAUUCUUUAUCAUACCACUUUUGUAAGUGUUGAAUAUAUUGCUGUUUAUUUUUCUAUGUUCUGUUUCGUAGCCUUAAGAAGUGUUUCAAACGAUCUG: 0.376
AGGGGCAAGGUACCCGCUGAGGUGUGUGGGCUGACUGGAGGUCCUGGAUCCCCCUACUGCUCCCAGGAAUUGGGCUCCUGACAGCAGUCUGCUACCACAACCCCAGGCGG: 0.566
GUUCCAGCUAGCUUUAAAAGCUAUACGGUGCUAAUUAGUAAAAUAUUGAGGGCAAUAUUUUACUGCUAGCUUGCAAAAUUAUAAGUGUUUUAAAAAUAAAAUACAUGAAA: 1
UCCCUCCCAGCCUGGUGCUGGUGAUGGGCCCUGGCCCUACUCCAGGGCCAAUGCACCCCCGCCUCACACACGCACUCCUUCUCCUCAAGGCCAGGGCAGAGGGCCUCACC: 0.689
UGGUCUCAAACUCCUAAGGUCAUCCACCUGCCUCGGCCUCCCAGAGUGCUGAGAUUACAGGCGUGAGCCUCCGCGCCCGGCCCCCUUGCAGUUCUCUCUGAUUUGGUUUG: 0.373
AGGGGACGAAGGUGGGGAUCCUGAAAUGUUCUUCAACUGGGGAAGACAGAGCUCACCUUCAGGCAGGAGCAGGGGCCUCAGCAUUCUGCAGUGAGUGUAGAGUGAAAGUC: 0.611
AUGAUGUUACCAGAAACAGGCAUUCAGGAACUCUACUGUCUAGAUACUACAUUCAGCUUACCAUAAAUAUUUGUCCUUGAAGGGUUUGAUUUAAUAUUUUCACAGACUAG: 0.679
GUUAAUGGAUGUAAUGCAGGGUUCCUACACUGUAUUGGCGCAUGUUGGUGGCCCUCUGUGCCCUAAGCAUAUGCACAUGGGGCACAUACACAGCUACAGAGUGAGAGUUG: 5.82

Sample 3
Target: Histone acetyltransferase KAT6A, winged helix 2, GST fusion (KAT6A, Homo sapiens, UniProt Q92794, residues 85-181)
Method: protein binding microarray
Form: double-stranded DNA, one strand shown
Sample: in vitro
Tested at: not given
Setting: 8-mer, flanks averaged, mean of 2 arrays, mostly near background
Baseline: not given
Direction: higher = stronger binding
Quantity: E-score
Construct (chain): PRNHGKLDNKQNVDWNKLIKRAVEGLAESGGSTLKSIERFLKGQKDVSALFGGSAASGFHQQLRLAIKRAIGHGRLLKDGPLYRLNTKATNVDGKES
GCGCAACC: 0.097
ACCCTACT: -0.0982
AGGTACCC: 0.00654
GCTGGTCA: 0.0901
CATGTAAC: -0.17
GCAAGTCA: -0.0728
AGACACCA: 0.152
GTAAATGA: -0.0692
GAACTCGC: 0.218
TCGTCGCA: 0.142
CACGTCAG: -0.0393
CGACACCG: -0.0245
GGCCCCTA: -0.144
ACGCGCCG: 0.0572
ACGCAAAT: -0.0411
GGCGCGTA: -0.109
GTGCAAGA: 0.0782
TCACCTCA: -0.013
CAGTGGTA: -0.16
AGACATCT: -0.0632
CACCGGAC: 0.201
GGATAGAA: 0.122
GTGGAGCA: 0.183
CGTACCTA: -0.343
GCTTAAAA: 0.184

Sample 4
Target: TAR DNA-binding protein 43, full length, His tag (TARDBP, Homo sapiens, UniProt Q13148, residues 1-414)
Method: RNA Bind-n-Seq
Form: RNA
Sample: in vitro
Tested at: 20 nM
Setting: 6-mer, flanks averaged, single round
Added: 150 mM LiCl
Baseline: input library
Direction: higher = stronger binding
Quantity: 6-mer enrichment (R)
GACUAA: 0.87
GGGAAA: 1.01
GAGAAA: 0.924
UGGAAU: 0.981
GGCGAU: 0.991
GUGUUU: 1.83
GGGAGU: 1.24
AAUGAA: 0.978
CAAAUG: 0.897
GAGAGC: 1
UACUGA: 0.835
AUGAAU: 1.07
AAACAA: 0.865
CGAGGU: 1
CCAUUU: 1.07
UUCGUC: 0.961
GGAGUG: 1.38
UUUUCG: 1.08
GAUUUA: 0.922
ACACGA: 0.799
GGCCUC: 0.939
UGGUAG: 1.18
CCCAUA: 0.992
UAAGUC: 0.871
CGUGUU: 1.21

Sample 5
Target: Sal-like protein 4, full length isoform A (SALL4, Homo sapiens, UniProt Q9UJQ4, residues 1-1053)
Sequence of UniProt Q9UJQ4 (whole entry, looked up): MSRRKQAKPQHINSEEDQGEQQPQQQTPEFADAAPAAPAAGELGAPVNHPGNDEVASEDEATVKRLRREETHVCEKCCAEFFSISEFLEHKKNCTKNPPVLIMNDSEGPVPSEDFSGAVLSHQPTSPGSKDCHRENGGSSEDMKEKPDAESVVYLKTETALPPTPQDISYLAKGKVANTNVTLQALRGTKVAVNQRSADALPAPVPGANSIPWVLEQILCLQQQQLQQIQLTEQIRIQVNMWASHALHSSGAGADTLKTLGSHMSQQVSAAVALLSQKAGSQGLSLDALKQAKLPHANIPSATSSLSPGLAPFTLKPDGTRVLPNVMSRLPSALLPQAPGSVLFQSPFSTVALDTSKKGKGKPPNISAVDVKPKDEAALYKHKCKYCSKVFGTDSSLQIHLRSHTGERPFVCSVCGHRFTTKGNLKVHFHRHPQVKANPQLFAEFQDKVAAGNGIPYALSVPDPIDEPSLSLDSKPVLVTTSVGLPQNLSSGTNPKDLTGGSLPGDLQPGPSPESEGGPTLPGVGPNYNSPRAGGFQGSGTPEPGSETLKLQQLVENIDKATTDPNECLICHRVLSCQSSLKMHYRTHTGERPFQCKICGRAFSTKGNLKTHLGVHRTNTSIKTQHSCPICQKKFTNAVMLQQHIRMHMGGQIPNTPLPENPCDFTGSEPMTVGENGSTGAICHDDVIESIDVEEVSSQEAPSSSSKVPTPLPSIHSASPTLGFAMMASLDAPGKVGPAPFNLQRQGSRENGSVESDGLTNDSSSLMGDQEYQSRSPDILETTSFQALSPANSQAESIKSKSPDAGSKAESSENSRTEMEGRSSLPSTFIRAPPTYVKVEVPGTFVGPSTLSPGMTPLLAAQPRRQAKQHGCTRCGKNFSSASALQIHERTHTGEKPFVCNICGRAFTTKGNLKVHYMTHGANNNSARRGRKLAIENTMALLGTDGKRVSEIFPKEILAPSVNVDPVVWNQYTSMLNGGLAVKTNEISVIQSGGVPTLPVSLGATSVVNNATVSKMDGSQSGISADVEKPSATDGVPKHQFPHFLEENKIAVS
Method: universal PBM
Form: double-stranded DNA, one strand shown
Sample: in vitro
Tested at: 600 nM
Setting: 8-mer, flanks averaged, mean of replicates
Direction: higher = stronger binding
Quantity: E-score
CTTAGAGC: -0.0272
CTAATCGA: 0.037
CAGAGCAA: -0.0499
GAGATAAC: 0.104
AGACGGCA: -0.164
GCGGGGAA: -0.0657
GTATCAAC: 0.0565
ATTGACGC: 0.0991
CCGCGCCC: -0.376
CATGCCAG: -0.235
GCAATTCC: -0.0114
CGGAGCGC: -0.323
AGCTGGTA: -0.151
CCTTGTGA: -0.0195
CCTTTCGA: -0.0204
CCGAGCAG: -0.253
TCATTCCA: 0.105
ATCATCCG: -0.232
GCAAAAAA: 0.227
ACACCGAT: -0.135
AGAGAGCA: -0.15
AAGCGCTC: -0.158
ACGATGCC: -0.32
AACGTAGT: 0.142
AGAGACCT: -0.114

Sample 6
Target: CCNB1, cyclin fold, Cln2 fusion (human)
Method: yeast growth competition, sequencing
Sample: yeast
Setting: weak parent motif
Baseline: not given
Direction: higher = stronger binding
Quantity: normalised enrichment score
Starting sequence: GMNC docking peptide (human); KNAKRNLSSEFAN
N2W: 0.173
R5W: 0.266
S8V: 0.261
R5C: -0.0267
S8M: 0.769
F11R: 0.00165
N2Y: 0.611
E10G: 0.236
F11D: 0.783
N6R: 0.277
A3L: -0.117
S9C: 0.0353
L7W: 0.298
A3F: 0.397
L7N: 0.792
K4M: -0.0251
R5L: -0.0534
A3G: 0.221
L7A: 0.105
R5D: 0.0718
A12V: -0.299
S9K: 0.073
L7V: 0.0923
A12W: 0.161
S9P: 0.268
